{"data": "Measured values collected from several papers", "note": "A part holds a random share of what one study measured."}
{"data": "Series 1", "target": "Ras GTPase-activating protein-binding protein 1, full length (G3BP1, Homo sapiens, UniProt Q13283)", "method": "RNA Bind-n-Seq", "molecule type": "RNA", "sample": "in vitro", "tested at": "200 nM", "notes": "whole 134-nt RNA, ends assumed", "with": "150 mM LiCl", "baseline": "input library", "reading": "higher = stronger binding", "all molecules": "7-deaza-guanosine replaces G", "constant ends, left off below": "GGGAGUUCUACAGUCCGACGAUC … UGGAAUUCUCGGGUGUCAAGG", "UniProt Q13283, sequence (whole entry, looked up)": "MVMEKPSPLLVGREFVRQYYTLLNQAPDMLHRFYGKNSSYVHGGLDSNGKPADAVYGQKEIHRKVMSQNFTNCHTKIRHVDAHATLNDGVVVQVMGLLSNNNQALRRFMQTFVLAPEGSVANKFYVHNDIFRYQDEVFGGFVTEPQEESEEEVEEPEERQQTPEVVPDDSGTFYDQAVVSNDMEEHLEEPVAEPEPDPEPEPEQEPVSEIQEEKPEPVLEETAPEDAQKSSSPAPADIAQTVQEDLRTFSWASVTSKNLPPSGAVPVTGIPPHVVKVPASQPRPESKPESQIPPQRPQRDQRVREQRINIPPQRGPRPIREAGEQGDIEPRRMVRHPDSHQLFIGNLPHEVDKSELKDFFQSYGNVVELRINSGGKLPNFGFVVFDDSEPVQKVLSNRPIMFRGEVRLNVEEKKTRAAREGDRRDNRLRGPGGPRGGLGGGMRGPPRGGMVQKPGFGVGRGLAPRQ"}
{"Sequence": "UAACUUUAGAGGAGGAUCUGAUGGAUAUGGCAGUGGACCUGGAUUUGGGGAUGGCUAUAAUGGGUAUGGAGGAGGACCUGGAGGUGGCAA", "log2 enrichment": -0.269}
{"Sequence": "UGGCCAAUAGCAUCCUUUUCCAGUCUUCCGGUCUGACAAAUGGAAUAAUAGAAGAAAAGGACAUACAUGAAGAAUUGCCAAAACGGAAAG", "log2 enrichment": -1.47}
{"Sequence": "UCAAGUCCUGUGCUACACAUCGUAUGUACCGAAUCGGUUUGGUUUGGGUUUGGGAAAGUAUUAUGUUACGCCGUUCGGAUCUGCACUUCC", "log2 enrichment": -1.1}
{"Sequence": "UGGCCUUAUCACUCCUGGAGGCUUUUCAUCAGUGCCUGCUGGAAUGGAGACCCCUGAACUCAUUGAGCUGAGGAAGAAGAAGAUUGAGGA", "log2 enrichment": -0.659}
{"Sequence": "CUGUGCUACACAUCGUAUGUACCGAAUCGGGUUUUUUUGGUUUUUUUGGGUUUUUUUGGGGAAAGUAUUAUGUUACGCCGUUCGGAUCUG", "log2 enrichment": 0.978}
{"Sequence": "UGCCUGGCCCAGUGCUGGGUUUGCCUUGUUGACGAUGCGCUUGGAUUGUUAAGGACACCGAUGUUCAGAACCCGGGAAGAGUCAUCUUAA", "log2 enrichment": -2.45}
{"data": "Series 2", "target": "Histone acetyltransferase KAT6A, winged helix 2, GST fusion (KAT6A, Homo sapiens, UniProt Q92794, residues 85-181)", "method": "protein binding microarray", "molecule type": "double-stranded DNA, one strand shown", "sample": "in vitro", "tested at": "not given", "notes": "8-mer, flanks averaged, mean of 2 arrays, mostly near background", "baseline": "not given", "reading": "higher = stronger binding", "Target sequence (chain)": "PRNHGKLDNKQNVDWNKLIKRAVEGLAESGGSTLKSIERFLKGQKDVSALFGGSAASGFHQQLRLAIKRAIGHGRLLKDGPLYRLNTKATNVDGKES"}
{"Sequence": "GATGATGA", "E-score": -0.0845}
{"Sequence": "GAGTTAGA", "E-score": 0.0569}
{"Sequence": "AATCCCGT", "E-score": 0.0428}
{"Sequence": "CAATCCTC", "E-score": -0.0952}
{"Sequence": "AGCCTTAA", "E-score": -0.173}
{"Sequence": "CGTTTGCC", "E-score": 0.107}
{"Sequence": "ATCCGCTC", "E-score": 0.0888}
{"Sequence": "TACGCAGA", "E-score": 0.125}
{"data": "Series 3", "target": "Prothrombin, mature alpha-thrombin (F2, Homo sapiens, UniProt P00734)", "method": "aptamer microarray, sandwich", "molecule type": "DNA with 2'F-ANA", "sample": "in vitro", "tested at": "200 nM", "notes": "whole 15-mer aptamer, many near background", "with": "Cy3 exosite-II aptamer, 400 nM", "reading": "higher = stronger binding", "sequence": "GGTTGGTGTGGTTGG"}
{"Modification": "2'F-ANA at 1 2 3 4 8 10 11 12", "mean fluorescence intensity [a.u.]": 68.8}
{"Modification": "2'F-ANA at 4 6 9 11 12 14 15", "mean fluorescence intensity [a.u.]": 79}
{"Modification": "2'F-ANA at 1 4 8 9 10 11 14", "mean fluorescence intensity [a.u.]": 49.2}
{"Modification": "2'F-ANA at 2 5 9 12 15", "mean fluorescence intensity [a.u.]": 140}
{"Modification": "2'F-ANA at 2 3 6 7 8 9 13 14 15", "mean fluorescence intensity [a.u.]": 355}
{"Modification": "2'F-ANA at 4 5 12 13 14 15", "mean fluorescence intensity [a.u.]": 49.3}
{"Modification": "2'F-ANA at 1 4 5 6 9 11 12", "mean fluorescence intensity [a.u.]": 87.7}
{"Modification": "2'F-ANA at 1 4 12 13", "mean fluorescence intensity [a.u.]": 256}
{"data": "Mixed results"}
{"Substance": "PhoQ, residues 284 288 289 292 302 303 SVHLDV", "target": "PhoP, residues 12 14 15 18 19 IQFRS (Escherichia coli, UniProt P23836)", "assay": "Sort-seq, item: YFP reporter", "system": "E. coli", "setting": "PhoQ-PhoP variant library, with: 10 µM Mg2+", "scale": "baseline: high Mg2+ state, higher = stronger signaling", "measurement": "fold induction", "value": 7.91}
